Results of several laboratories.
Each numbered part is a random draw from the data of one study; scales do not carry over between parts. Changes are numbered by the printed parent chain.
Sequence of UniProt Q9Y6M4 (whole entry, looked up): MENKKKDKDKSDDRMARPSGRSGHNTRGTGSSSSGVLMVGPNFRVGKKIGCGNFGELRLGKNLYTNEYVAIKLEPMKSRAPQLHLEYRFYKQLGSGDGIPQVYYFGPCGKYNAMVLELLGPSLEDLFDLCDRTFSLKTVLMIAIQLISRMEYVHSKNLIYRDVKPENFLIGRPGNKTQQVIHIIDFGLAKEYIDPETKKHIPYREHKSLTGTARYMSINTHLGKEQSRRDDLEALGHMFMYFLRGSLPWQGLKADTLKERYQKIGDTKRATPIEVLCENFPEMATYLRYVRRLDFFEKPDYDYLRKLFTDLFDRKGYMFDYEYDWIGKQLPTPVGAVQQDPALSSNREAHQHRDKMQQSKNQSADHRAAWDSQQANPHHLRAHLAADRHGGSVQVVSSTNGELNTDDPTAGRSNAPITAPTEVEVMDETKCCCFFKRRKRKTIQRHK

Study 1
Target: NFE2L2, bZIP domain (human)
Technique: DHFR protein complementation
Sample: yeast
Notes: single substitutions, most at no-binding floor
Reference: wild-type JUN-FOS pair
Reading: higher = stronger binding
Starting sequence: JUN, bZIP domain (human); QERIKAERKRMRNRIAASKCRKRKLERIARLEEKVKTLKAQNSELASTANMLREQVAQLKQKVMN; partner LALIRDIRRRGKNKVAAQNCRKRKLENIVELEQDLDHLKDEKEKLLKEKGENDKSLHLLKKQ
The binding fitness of `S43Q` is reported as -1.31 natural log.
`A49T` has a binding fitness of -1.54 natural log.
For `A29R`, the binding fitness was -1.46 natural log.
`T48H` gave a binding fitness of -1.34 natural log.
With `R53Q` the binding fitness was -1.51 natural log.
With `A49L` the binding fitness was -1.44 natural log.
`I28E` gave a binding fitness of -1.08 natural log.
With `T37M` the binding fitness was -1.55 natural log.

Study 2
Target: Sal-like protein 4, full length isoform B (SALL4, Homo sapiens, UniProt Q9UJQ4-2, residues 1-616)
Technique: universal PBM
Molecule type: double-stranded DNA, one strand shown
Sample: in vitro
Tested at: not given
Notes: 8-mer, flanks averaged, mean of replicates
Reading: higher = stronger binding
Target sequence (chain): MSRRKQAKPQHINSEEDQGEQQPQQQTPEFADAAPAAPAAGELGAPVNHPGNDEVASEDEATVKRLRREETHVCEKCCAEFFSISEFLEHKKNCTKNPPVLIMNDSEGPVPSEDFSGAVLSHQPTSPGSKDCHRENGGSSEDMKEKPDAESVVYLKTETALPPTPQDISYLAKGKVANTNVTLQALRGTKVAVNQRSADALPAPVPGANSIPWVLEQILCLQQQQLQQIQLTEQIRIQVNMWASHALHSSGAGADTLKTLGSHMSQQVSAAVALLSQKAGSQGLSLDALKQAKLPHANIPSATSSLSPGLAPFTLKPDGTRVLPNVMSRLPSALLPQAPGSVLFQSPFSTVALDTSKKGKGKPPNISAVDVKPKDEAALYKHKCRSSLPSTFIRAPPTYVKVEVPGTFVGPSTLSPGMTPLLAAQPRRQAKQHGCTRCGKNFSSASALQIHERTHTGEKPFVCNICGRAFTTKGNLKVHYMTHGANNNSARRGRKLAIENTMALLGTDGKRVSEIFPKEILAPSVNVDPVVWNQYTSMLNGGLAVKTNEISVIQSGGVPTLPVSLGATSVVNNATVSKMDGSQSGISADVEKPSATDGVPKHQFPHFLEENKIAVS
For `AACTCATC`, the E-score was -0.0389.
With `ATCCTATG` the E-score was 0.0769.
With `CTTCTACC` the E-score was 0.0085.
`GATGGTAA` has an E-score of 0.137.
For `AAAAACAG`, the E-score was 0.112.
`CTTTGCTC` gave an E-score of -0.114.
For `ACTAACAC`, the E-score was 0.0919.
With `AATAGACC` the E-score was 0.0017.

Study 3
Target: Runt-related transcription factor 1, full length (RUNX1, Homo sapiens, UniProt Q01196-8, residues 1-480)
Technique: protein-binding microarray
Molecule type: hairpin DNA
Sample: in vitro
Tested at: not given
Notes: whole hairpin DNA, median over replicate spots
Reference: not given
Reading: higher = stronger binding
With `GAGGCCTGTTGGGGTTGGCCTCCTGGCCAACCCCAACAGGCCTCACACTC` the median fluorescence was 1900 a.u.
For `GAGGCCCTACCGCAACAGCCTCCTGGCTGTTGCGGTAGGGCCTCACACTC`, the median fluorescence was 2750 a.u.
`GAGGCCCGACCGCAACAGCCTCCTGGCTGTTGCGGTCGGGCCTCACACTC` gave a median fluorescence of 5060 a.u.
The median fluorescence of `GAGGCCTGTTGTGGTTAGCCTCCTGGCTAACCACAACAGGCCTCACACTC` is reported as 5780 a.u.
`GAGGCCTGTTGTGGTAGGCCTCCTGGCCTACCACAACAGGCCTCACACTC` gave a median fluorescence of 2120 a.u.
For `GAGGCCTGCGGTGGTTGGCCTCCTGGCCAACCACCGCAGGCCTCACACTC (5mC at 9)`, the median fluorescence was 2410 a.u.
`CTCAGTTCTTTGGGCTGGACTCCTGTCCAGCCCAAAGAACTGAGACACTC` gave a median fluorescence of 1660 a.u.
The median fluorescence of `GAGGCCTGTCGCGGTGGGCCTCCTGGCCCACCGCGACAGGCCTCACACTC` is reported as 2200 a.u.

Other studies, line by line
With `CN(C)S(=O)(=O)c1ccc2c(c1)/C(=C/c1cc3c([nH]1)CCCC3)C(=O)N2` the remaining activity was 101% (Casein kinase I isoform gamma-3 (CSNK1G3, Homo sapiens, UniProt Q9Y6M4); enzyme activity, inhibitor; 0.5 µM; reference: control).

Excerpt of the above (study 2):
With `ATCCTATG` the E-score was 0.0769.
